{"data": "Assay results from different studies", "note": "Protocols differ between the studies behind these lines.", "UniProt P49761, sequence (whole entry, looked up)": "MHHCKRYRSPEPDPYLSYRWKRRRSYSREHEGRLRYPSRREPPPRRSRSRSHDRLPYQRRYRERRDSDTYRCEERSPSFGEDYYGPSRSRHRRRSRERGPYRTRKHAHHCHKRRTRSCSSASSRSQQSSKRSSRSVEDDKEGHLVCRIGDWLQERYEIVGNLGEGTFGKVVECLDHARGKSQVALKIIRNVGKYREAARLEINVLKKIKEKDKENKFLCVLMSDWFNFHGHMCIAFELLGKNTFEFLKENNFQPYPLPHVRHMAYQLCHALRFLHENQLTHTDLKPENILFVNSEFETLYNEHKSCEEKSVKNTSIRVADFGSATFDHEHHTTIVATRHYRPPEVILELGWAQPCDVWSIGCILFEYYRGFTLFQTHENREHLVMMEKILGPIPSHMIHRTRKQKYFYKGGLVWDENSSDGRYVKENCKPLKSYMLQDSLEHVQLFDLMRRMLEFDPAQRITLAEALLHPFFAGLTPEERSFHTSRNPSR", "UniProt Q08881, sequence (whole entry, looked up)": "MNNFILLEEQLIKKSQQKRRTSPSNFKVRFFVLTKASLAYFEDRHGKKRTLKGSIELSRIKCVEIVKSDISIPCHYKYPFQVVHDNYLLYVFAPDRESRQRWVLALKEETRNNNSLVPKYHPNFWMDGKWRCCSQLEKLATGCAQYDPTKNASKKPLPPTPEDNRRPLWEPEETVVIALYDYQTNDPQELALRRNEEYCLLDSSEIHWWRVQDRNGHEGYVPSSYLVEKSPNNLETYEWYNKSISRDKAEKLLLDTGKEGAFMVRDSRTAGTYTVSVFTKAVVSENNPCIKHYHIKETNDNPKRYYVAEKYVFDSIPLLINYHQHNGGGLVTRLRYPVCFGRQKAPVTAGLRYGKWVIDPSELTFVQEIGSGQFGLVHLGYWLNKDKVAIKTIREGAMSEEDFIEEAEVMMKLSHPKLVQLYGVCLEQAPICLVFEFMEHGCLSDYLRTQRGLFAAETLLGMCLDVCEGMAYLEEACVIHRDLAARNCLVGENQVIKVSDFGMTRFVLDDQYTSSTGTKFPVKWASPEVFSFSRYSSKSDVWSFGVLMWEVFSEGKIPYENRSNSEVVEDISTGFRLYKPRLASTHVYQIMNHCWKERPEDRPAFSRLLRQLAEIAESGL", "UniProt P08069, sequence (whole entry, looked up)": "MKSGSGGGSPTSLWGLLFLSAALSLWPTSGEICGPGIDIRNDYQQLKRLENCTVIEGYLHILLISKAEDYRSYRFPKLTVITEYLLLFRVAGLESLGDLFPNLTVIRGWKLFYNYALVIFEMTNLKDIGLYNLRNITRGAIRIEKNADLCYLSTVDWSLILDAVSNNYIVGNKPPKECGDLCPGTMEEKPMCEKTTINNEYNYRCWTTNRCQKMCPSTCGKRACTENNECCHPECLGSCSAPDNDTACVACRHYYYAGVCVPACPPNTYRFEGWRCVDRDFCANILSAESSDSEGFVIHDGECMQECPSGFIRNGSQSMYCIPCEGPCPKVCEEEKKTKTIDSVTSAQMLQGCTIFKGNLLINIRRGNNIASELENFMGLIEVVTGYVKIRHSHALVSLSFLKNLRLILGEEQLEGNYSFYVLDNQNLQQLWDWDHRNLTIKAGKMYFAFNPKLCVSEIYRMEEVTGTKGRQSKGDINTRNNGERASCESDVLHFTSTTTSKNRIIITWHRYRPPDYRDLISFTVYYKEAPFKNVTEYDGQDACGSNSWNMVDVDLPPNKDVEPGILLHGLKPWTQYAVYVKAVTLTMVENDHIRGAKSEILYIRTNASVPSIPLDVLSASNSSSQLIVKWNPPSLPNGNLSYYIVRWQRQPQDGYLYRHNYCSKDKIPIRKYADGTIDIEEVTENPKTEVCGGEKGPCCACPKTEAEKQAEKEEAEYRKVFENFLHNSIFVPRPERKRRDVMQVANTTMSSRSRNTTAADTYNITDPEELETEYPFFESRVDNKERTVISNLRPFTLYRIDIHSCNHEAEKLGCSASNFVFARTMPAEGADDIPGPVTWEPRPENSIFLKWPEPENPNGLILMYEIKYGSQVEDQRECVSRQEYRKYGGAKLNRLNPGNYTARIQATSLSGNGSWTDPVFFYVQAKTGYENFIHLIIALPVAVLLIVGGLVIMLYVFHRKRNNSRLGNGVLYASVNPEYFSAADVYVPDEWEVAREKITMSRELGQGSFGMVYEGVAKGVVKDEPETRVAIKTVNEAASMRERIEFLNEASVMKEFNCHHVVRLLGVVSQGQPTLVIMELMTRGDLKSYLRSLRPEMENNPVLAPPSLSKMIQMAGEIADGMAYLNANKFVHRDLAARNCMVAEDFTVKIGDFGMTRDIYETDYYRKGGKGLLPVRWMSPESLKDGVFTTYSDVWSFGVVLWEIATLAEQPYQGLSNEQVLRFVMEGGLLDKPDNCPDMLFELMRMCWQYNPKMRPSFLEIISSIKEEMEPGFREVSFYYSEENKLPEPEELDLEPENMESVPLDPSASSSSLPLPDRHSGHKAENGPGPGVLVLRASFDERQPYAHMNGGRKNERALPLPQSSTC"}
{"Compound": "CC(=NNC(=O)COc1ccc2c(C)c(Cc3ccccc3)c(=O)oc2c1C)c1ccc(Br)cc1", "target or system": "PC-3", "test": "cell growth or viability, MTT", "setting": "125 µg/mL", "quantity": "viability", "result": "8.53%"}
{"Compound": "CNc1ncc2c(/C=C/C(=O)N3CCC(OC)CC3)nn(CC(OC)OC)c2n1", "target or system": "FLO-1", "test": "cell growth or viability, resazurin", "setting": "5 days", "quantity": "EC50", "result": "> 30 µM"}
{"Compound": "CCN(O)N=Nc1ccc(S(=O)(=O)Nc2nccs2)cc1", "test": "ABTS scavenging", "setting": "120 µg/mL", "quantity": "inhibition", "result": "38.2%"}
{"Compound": "COc1cc(-c2cncc3c2CN(C)Cc2cc(N4CCNCC4)ccc2-3)cc(OC)c1OC", "target or system": "Tyrosine-protein kinase ITK/TSK (ITK, Homo sapiens, UniProt Q08881)", "test": "enzyme activity, inhibitor", "setting": "1 µM", "quantity": "remaining activity", "result": "97%"}
{"Compound": "Cc1cccc(-c2nn3c(c2-c2ccnc4ccc(C(N)=O)cc24)CCC3)n1", "target or system": "MB002", "test": "cell growth or viability", "setting": "7 days", "quantity": "IC50", "result": "> 10 µM"}
{"Compound": "CCCCC(=O)Nc1ccc(-c2ccc3ncn(CCC)c(=O)c3c2)cn1", "target or system": "Epidermal growth factor receptor (EGFR, Homo sapiens, UniProt P00533)", "test": "binding, competition with immobilised ligand", "setting": "0.5 µM", "quantity": "remaining binding", "result": "100%"}
{"Compound": "COc1ccc(CNC[C@](O)(COCc2ccc(F)cc2)[C@@H]2CC[C@@H](C)C[C@H]2OCc2ccc(F)cc2)cc1", "target or system": "HeLa", "test": "cell growth or viability, MTT", "setting": "10 µM, 72 h", "quantity": "inhibition", "result": "93.4%"}
{"Compound": "CCC(=CCc1c(O)cc2c(c1O)C(=O)C[C@H](c1ccccc1O)O2)CC", "target or system": "HeLa", "test": "cell growth or viability, MTT", "setting": "0.938 µM, 48 h", "quantity": "inhibition", "result": "-3.13%"}
{"Compound": "Nc1ncnc2c1c(/C=C/C(=O)N1CCCCC1)nn2CC1CCCC1", "target or system": "FLO-1", "test": "cell growth or viability, resazurin", "setting": "5 days", "quantity": "EC50", "result": "> 30 µM"}
{"Compound": "Cc1cc([C@@H](C)Nc2ccccc2C(=O)O)c2nc(N3CCC(F)(F)CC3)c(C#N)c(=O)n2c1", "target or system": "Insulin-like growth factor 1 receptor (IGF1R, Homo sapiens, UniProt P08069)", "test": "binding, competition with immobilised ligand", "setting": "10 µM", "quantity": "remaining binding", "result": "100%"}
{"Compound": "CC(=NNC(=O)c1ccncc1)c1ccc(Nc2nnc(-c3ccc(Cl)cc3)c3ccccc23)cc1", "target or system": "MCF7", "test": "cell growth or viability, MTT", "setting": "1.25 µM", "quantity": "cell death", "result": "95.4%"}
{"Compound": "C[C@@H]1CC[C@@H]([C@](C)(O)CNCc2ccc(F)cc2)[C@H](OCc2ccccc2)C1", "target or system": "A2780", "test": "cell growth or viability, MTT", "setting": "30 µM, 72 h", "quantity": "inhibition", "result": "29.8%"}
{"Compound": "O=S(=O)(Nc1nccs1)c1ccc(N=NN(O)c2ccccc2)cc1", "test": "ABTS scavenging", "setting": "120 µg/mL", "quantity": "inhibition", "result": "64.2%"}
{"Compound": "Cc1c(Cc2ccccc2)c(=O)oc2c(C)c(OCC(=O)NN=Cc3ccco3)ccc12", "target or system": "PC-3", "test": "cell growth or viability, MTT", "setting": "62.5 µg/mL", "quantity": "viability", "result": "20.1%"}
{"Compound": "Cc1ccc(S(=O)(=O)N2CCCN(C(=O)c3cc(-c4ccccc4)n[nH]3)CC2)cc1", "target or system": "HEK293", "test": "cell growth or viability", "quantity": "IC50", "result": "> 10 µM"}
{"Compound": "O=C(C=Cc1ccccc1)Nc1ccc(Oc2nnc(-c3ccc(Cl)cc3)c3ccccc23)cc1", "target or system": "MCF7", "test": "cell growth or viability, MTT", "setting": "5 µM", "quantity": "cell death", "result": "91.6%"}
{"Compound": "CCc1c(C)c2ccc(OCC=Cc3ccccc3)c(C)c2oc1=O", "target or system": "PC-3", "test": "cell growth or viability, MTT", "setting": "125 µg/mL", "quantity": "viability", "result": "38.3%"}
{"Compound": "S=C(Nc1ccccc1)Nc1ccc(Oc2nnc(-c3ccc(Cl)cc3)c3ccccc23)cc1", "target or system": "MCF7", "test": "cell growth or viability, MTT", "setting": "5 µM, 24 h", "quantity": "viability", "result": "2.7%"}
{"Compound": "CCN(Cc1c(F)cccc1Cl)c1ccc(CO)c(Cl)c1", "target or system": "RBE", "test": "cell growth or viability, ATP luminescence", "setting": "46 µM, 72 h", "quantity": "inhibition", "result": "54%"}
{"Compound": "COc1ccc(C2CC(=O)C3=C(C2)NC(C)=C(C(=O)OC(C)C)C3c2cccc(O)c2)cc1OC (stereo not drawn)", "target or system": "HEK293", "test": "cell growth or viability", "quantity": "IC50", "result": "> 10 µM"}
{"Compound": "C=CC(=O)N1CCC(COCC(=O)N2CCN(c3nc(-c4cnc(N)nc4C(F)F)nc(N4CCOC[C@@H]4C)n3)CC2)CC1", "target or system": "Dual specificity protein kinase CLK3 (CLK3, Homo sapiens, UniProt P49761)", "test": "binding, competition with immobilised ligand", "setting": "1 µM", "quantity": "remaining binding", "result": "76%"}
{"Compound": "CC(=NNC(=O)c1ccc(N)cc1)c1ccc(Nc2nnc(-c3ccc(Cl)cc3)c3ccccc23)cc1", "target or system": "MCF7", "test": "cell growth or viability, MTT", "setting": "5 µM", "quantity": "cell death", "result": "94.2%"}
{"Compound": "Cc1[nH]c(C)c(-c2ccc(OCCOc3ccc(C(F)(F)F)cn3)cc2)c(=O)c1Br", "target or system": "HEK293", "test": "cell growth or viability", "quantity": "IC50", "result": "> 10 µM"}
{"Compound": "CC(=NNC(=O)c1ccccc1)c1ccc(Nc2nnc(-c3ccc(Cl)cc3)c3ccccc23)cc1", "target or system": "MCF7", "test": "cell growth or viability, MTT", "setting": "1.25 µM", "quantity": "cell death", "result": "49.2%"}
{"Compound": "COc1cc(-c2nn(CCN3CCC(N(C)C)CC3)c3ncnc(N)c23)ccc1NC(=O)OC(C)(C)C", "target or system": "FLO-1", "test": "cell growth or viability, resazurin", "setting": "5 days", "quantity": "EC50", "result": "0.21 µM"}
{"Compound": "CCN(Cc1ccc(OC)cc1)c1ccc(CO)c(Cl)c1", "target or system": "RBE", "test": "cell growth or viability, ATP luminescence", "setting": "46 µM, 72 h", "quantity": "inhibition", "result": "83%"}
{"Compound": "CC(=NNC(=O)c1ccccc1Cl)c1ccc(Nc2nnc(-c3ccc(Cl)cc3)c3ccccc23)cc1", "target or system": "MCF7", "test": "cell growth or viability, MTT", "setting": "0.625 µM, 24 h", "quantity": "viability", "result": "99.8%"}
{"Compound": "CCc1nc(C(N)=O)c(Nc2ccc(N3CCC(N4CCN(C)CC4)CC3)c(OC)c2)nc1NC1CCOCC1", "target or system": "Kasumi 1", "test": "cell growth or viability", "setting": "72 h", "quantity": "GI50", "result": "0.355 µM"}
{"Compound": "CC(=NNC(=O)c1ccccc1O)c1ccc(Nc2nnc(-c3ccc(Cl)cc3)c3ccccc23)cc1", "target or system": "MCF7", "test": "cell growth or viability, MTT", "setting": "10 µM, 24 h", "quantity": "viability", "result": "5.31%"}
{"Compound": "Cc1ccc(C(CS(=O)(=O)c2ccccc2)=NNc2nc(-c3ccc(OCCCCOc4ccc(-c5csc(NN=C(CS(=O)(=O)c6ccccc6)c6ccc(C)cc6)n5)cc4)cc3)cs2)cc1", "target or system": "WM 266-4", "test": "cell growth or viability, MTT", "setting": "100 µM, 48 h", "quantity": "viability", "result": "37.9%"}
{"note": "A few entries again:"}
{"Compound": "CCN(Cc1ccc(OC)cc1)c1ccc(CO)c(Cl)c1", "target or system": "RBE", "test": "cell growth or viability, ATP luminescence", "setting": "46 µM, 72 h", "quantity": "inhibition", "result": "83%"}
{"Compound": "CC(=NNC(=O)c1ccccc1Cl)c1ccc(Nc2nnc(-c3ccc(Cl)cc3)c3ccccc23)cc1", "target or system": "MCF7", "test": "cell growth or viability, MTT", "setting": "0.625 µM, 24 h", "quantity": "viability", "result": "99.8%"}
{"Compound": "CCc1nc(C(N)=O)c(Nc2ccc(N3CCC(N4CCN(C)CC4)CC3)c(OC)c2)nc1NC1CCOCC1", "target or system": "Kasumi 1", "test": "cell growth or viability", "setting": "72 h", "quantity": "GI50", "result": "0.355 µM"}
